Measurements collected from several papers.
Parts stem from different laboratories: compare values within a part only. Changes are numbered by the printed parent chain.

Study 1 — method: RNA Bind-n-Seq; form: RNA; medium: in vitro; tested at: 365 nM; baseline: no-protein control; reading: higher = stronger binding
Target: RNA binding protein fox-1 homolog 2, RRM domain, GST-SBP tag (RBFOX2, Homo sapiens, UniProt O43251-10, residues 100-194)
Setting: natural RNA segment, single round, ends assumed
Construct (chain): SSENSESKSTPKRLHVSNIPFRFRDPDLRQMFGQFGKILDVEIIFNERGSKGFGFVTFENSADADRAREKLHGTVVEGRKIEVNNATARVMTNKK
| Sequence | RBNS enrichment (R) |
| --- | --- |
| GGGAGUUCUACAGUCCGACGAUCUAUGUUUUAAAAAACAAAUUUGAGAAUACAUUUAAUCAUAGGGAUAUAGAUAUAAGCACCUCUCUAAAGAAUCUUUAGUUUCCGACGUUGAAUUAUAGACCAGUUUGAGUUGGAAUUCUCGGGUGCCAA | 0.506 |
| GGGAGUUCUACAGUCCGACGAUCAGGCGUCUGCAGUGCCCAGGGUGCUCAGGACCACCGGGGUCUGUCCUGGGGGAGGCAGGGGUUGGCAGACCCUUGCCUGCGUGGUGCCGUCCUGCUCAUGUGGUAGGCUAUGGAAUUCUCGGGUGCCAA | 0.593 |
| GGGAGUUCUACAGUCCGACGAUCAGCGCCAUGAACAUCAAGCUAGGGCCCGCCCUGAAGAUCUACGCACGCAUCAGCAUGCUCAAGGACUCCUAGAGUCUCUGCUGCCUGCCCACUGCACCACCAGGCAGCCAUGGAAUUCUCGGGUGCCAA | 3.43 |
| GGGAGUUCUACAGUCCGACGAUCUAUUGACCGAGUAUUGUUGAGUAUUGCUAGAGUAGCUAGUUAUCUGGUGAGACUGCUAAUUGAUUCAGUGUAUGAUAGUUCACACGGGAUGAGAACCUUGGCCUUUAUCAUGGAAUUCUCGGGUGCCAA | 6.48 |
| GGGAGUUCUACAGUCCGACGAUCAUGCCUCCUGAUGGAUAUAAUUUUGUGAUUGUAUUUAAAAGUUGAAUAAAUCACACCAGCUUCCUGAAAAUGUUCAUAAUGCAUCUUUUGGAAAACAAAUACAUGCCUACUGGAAUUCUCGGGUGCCAA | 0.539 |
| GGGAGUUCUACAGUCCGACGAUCAUAAAGUUCAAAACCGCUGUCAUGGCCCCAUGUGAUCUCUCCCUCCCCUACCCCUCUAUCAUUUAGUUUCUUCUGCGCAAGCCACUCUGGCUUCCUUUCAGUUUUGUGGUUGGAAUUCUCGGGUGCCAA | 0.699 |
| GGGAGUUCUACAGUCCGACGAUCUACCCAUCAACAUAAUCACUCUGACAAUGUUCACGCAUUCAACUAUGAGUUCAUAUGUGGAAGAAAACUGGUGUUUUAGUAAAACCAAGUUCUUGACAUUAAUCUGUUGAUGGAAUUCUCGGGUGCCAA | 0.35 |
| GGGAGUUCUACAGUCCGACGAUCUCAGCUCUAUUACGACCCUUCUCAUCCCUAUAGAAGAGGUUGCUAAGUAUCCACUUCCCUUUCUAUGAGCCCCAGCUGCUAUUUUGAGACAUCCUGGGGAAAUCGAGCAGUGGAAUUCUCGGGUGCCAA | 0.383 |

Study 2 — target: CREB5, bZIP domain (human); method: DHFR protein complementation; medium: yeast; baseline: wild-type JUN-FOS pair; reading: higher = stronger binding
Setting: single substitutions, most at no-binding floor
Starting sequence: JUN, bZIP domain (human); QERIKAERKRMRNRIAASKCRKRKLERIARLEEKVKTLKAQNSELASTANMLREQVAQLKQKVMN; partner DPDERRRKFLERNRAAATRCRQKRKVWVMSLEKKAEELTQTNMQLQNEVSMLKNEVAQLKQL
| Substitution | binding fitness |
| --- | --- |
| Q55F | -0.964 natural log |
| K39S | -0.284 natural log |
| N42D | -1.2 natural log |
| A57W | -0.63 natural log |
| L59C | -1.29 natural log |
| L38A | -1.33 natural log |
| I28D | -0.609 natural log |
| T48F | -0.576 natural log |

Other studies, line by line
| Substance | target or system | test | test system | conditions | scale | quantity | result |
| --- | --- | --- | --- | --- | --- | --- | --- |
| TRAP1 (Homo sapiens, UniProt Q12931) | ELAC2 (Homo sapiens, UniProt Q9BQ52) | cross-linking MS | cell fractions | together with: DSSO | – | cross-linked residues | K466 to T488 |
| PhoQ, residues 284 288 289 292 302 303 TASMAF | PhoP, residues 12 14 15 18 19 QWHVF (Escherichia coli, UniProt P23836) | Sort-seq, refers to: YFP reporter | E. coli | PhoQ-PhoP variant library, together with: 10 µM Mg2+ | baseline: high Mg2+ state, higher = stronger signaling | fold induction | 12.1 |
| CEP120 (Homo sapiens, UniProt Q8N960) | RRBP1 (Homo sapiens, UniProt Q9P2E9) | cross-linking MS | cell fractions | together with: DMTMM | – | cross-linked residues | K365 to D1386 |
| Cc1ccc(C(C)C)c(OCC(O)CN2CCN(CCO)CC2)c1 (stereo not shown) | – | – | mouse, microsomes or S9 | 2 µM, 0.5 h | – | remaining compound | 38.2% |
| PSMC2 (Homo sapiens, UniProt P35998) | PSMC4 (Homo sapiens, UniProt P43686) | cross-linking MS | – | hits only | – | interaction screen | cross-linked |
| AGPS (Homo sapiens, UniProt O00116) | HSD17B4 (Homo sapiens, UniProt P51659) | cross-linking MS | cell fractions | together with: DMTMM | – | cross-linked residues | E170 to K184 |

Excerpt of the above (study 1):
| Sequence | RBNS enrichment (R) |
| --- | --- |
| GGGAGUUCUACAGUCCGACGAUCUAUUGACCGAGUAUUGUUGAGUAUUGCUAGAGUAGCUAGUUAUCUGGUGAGACUGCUAAUUGAUUCAGUGUAUGAUAGUUCACACGGGAUGAGAACCUUGGCCUUUAUCAUGGAAUUCUCGGGUGCCAA | 6.48 |
